Published values of several laboratories.
Each line is one published result; not all experiments were run side by side. ± marks the error that the study gave.
Chain of UniProt P10721 (whole entry, unmodified, looked up): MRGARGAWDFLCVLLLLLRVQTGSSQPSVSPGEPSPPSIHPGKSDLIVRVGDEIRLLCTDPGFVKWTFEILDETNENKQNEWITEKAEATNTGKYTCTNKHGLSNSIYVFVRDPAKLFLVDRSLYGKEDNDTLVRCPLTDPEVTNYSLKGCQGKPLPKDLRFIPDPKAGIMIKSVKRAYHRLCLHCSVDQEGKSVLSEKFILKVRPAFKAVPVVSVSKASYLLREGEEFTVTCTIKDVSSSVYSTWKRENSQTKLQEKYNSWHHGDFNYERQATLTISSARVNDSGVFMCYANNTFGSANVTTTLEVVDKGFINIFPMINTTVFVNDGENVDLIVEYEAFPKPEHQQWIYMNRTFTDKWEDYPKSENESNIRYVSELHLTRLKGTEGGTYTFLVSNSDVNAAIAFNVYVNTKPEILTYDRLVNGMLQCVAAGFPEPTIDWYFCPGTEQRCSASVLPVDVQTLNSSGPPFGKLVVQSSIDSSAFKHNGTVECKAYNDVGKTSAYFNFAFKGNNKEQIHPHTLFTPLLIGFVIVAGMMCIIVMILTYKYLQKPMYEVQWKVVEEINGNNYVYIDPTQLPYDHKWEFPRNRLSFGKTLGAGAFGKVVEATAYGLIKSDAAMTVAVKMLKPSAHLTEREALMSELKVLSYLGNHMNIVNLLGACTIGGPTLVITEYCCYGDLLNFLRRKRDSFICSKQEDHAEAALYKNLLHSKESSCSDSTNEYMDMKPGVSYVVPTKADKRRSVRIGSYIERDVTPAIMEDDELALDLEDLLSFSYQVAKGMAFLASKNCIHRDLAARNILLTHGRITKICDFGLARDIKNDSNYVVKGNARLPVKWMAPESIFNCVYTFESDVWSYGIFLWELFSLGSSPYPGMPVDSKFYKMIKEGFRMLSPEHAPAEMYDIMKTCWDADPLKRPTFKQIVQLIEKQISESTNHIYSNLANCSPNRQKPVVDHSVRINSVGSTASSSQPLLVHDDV
Chain of UniProt P07948 (whole entry, looked up): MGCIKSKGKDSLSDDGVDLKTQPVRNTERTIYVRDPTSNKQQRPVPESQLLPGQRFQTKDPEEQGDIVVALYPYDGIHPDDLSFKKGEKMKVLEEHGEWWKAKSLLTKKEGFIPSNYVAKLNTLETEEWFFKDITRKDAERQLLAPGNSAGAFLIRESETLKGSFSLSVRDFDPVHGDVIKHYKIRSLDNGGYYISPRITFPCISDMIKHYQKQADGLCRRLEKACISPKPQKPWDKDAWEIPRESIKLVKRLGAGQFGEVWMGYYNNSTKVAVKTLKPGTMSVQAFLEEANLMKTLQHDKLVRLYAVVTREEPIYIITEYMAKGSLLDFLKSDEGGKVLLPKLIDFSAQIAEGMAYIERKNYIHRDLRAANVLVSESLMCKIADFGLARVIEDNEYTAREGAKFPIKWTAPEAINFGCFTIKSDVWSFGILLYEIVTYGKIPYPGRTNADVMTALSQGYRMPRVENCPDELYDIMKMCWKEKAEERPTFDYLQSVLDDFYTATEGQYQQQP

Compound	tested on	test	test system	conditions	how to read	measurement	result
C[C@H](O)[C@@H](NC(=O)[C@H]1CCCN1C(=O)[C@@H](CCCCN)NC(=O)[C@@H](CO)NC(=O)[C@@H](Cc1ccc(O)cc1)NC(=O)[C@@H](CC(N)=O)NC(=O)CCOCCOCCOCCNC(=O)CN1CCN(CC(=O)O)CCN(CC(=O)O)CCN(CC(=O)O)CC1)C(=O)N[C@H](CC(=O)O)C(=O)N[C@H](CCCNC(=N)N)C(=O)N[C@H](CCC(N)=O)C(=O)N[C@H](Cc1ccc(O)cc1)C(=O)N[C@H](Cc1c[nH]cn1)C(=O)N[C@H](Cc1ccccc1)C(N)=O [gallium-68 labelled]		ex vivo gamma counting	BALB/c nude mouse, U-87 MG xenograft, intestine	intravenous, 1.85 MBq, 5 min		tissue uptake	0.72 ± 0.27 %ID/g
CN(C)[C@H]1C[C@@]23CC[C@@]4(O2)C(=CC[C@]2(C)[C@@H](c5ccc6ccncc6c5)CC[C@H]24)C=C3[C@@H](O)[C@@H]1O	LYN (Homo sapiens, UniProt P07948)	cell-free assay, inhibitor		0.1 µM		inhibition	-8.3%
CN1Cc2cc(Cl)ccc2-n2c(nnc2C2CCN(c3cccc([18F])n3)CC2)C1			C57BL/6 mouse male, blood	intravenous, dose not given, 5 min, added: blocking agent 10 mg/kg		tissue uptake	3.29 ± 0.72 %ID/g
CC[C@H](C)[C@H](NC(=O)[C@H](CCCNC(=N)N)NC(=O)[C@H](CCCCN)NC(=O)[C@H](Cc1ccc(O)cc1)NC(=O)[C@H](CC(=O)O)NC(=O)[C@H](C)NC(=O)CNC(=O)CCOCCOCCOCCNC(=O)CN1CCN(CC(=O)O)CCN(CC(=O)O)CCN(CC(=O)O)CC1)C(=O)N[C@H](C(=O)N[C@H](C(=O)N[C@@H](CCCCN)C(=O)N[C@H](C(=O)N[C@@H](CC(N)=O)C(N)=O)C(C)C)C(C)C)[C@@H](C)O [copper-64 labelled]		ex vivo gamma counting	C57BL/6J male mice, B16-F10 tumour, spleen	intravenous, 1.85 MBq, 100 min		tissue uptake	0.431 ± 0.047 %ID/g
CC(C)C[C@@H](NC(=O)[C@@H](CCCNC(=N)N)NC(=O)[C@@H](Cc1c[nH]cn1)NC(=O)[C@@H](Cc1c[nH]c2ccccc12)NC(=O)[C@@H](Cc1c[nH]cn1)NC(=O)[C@@H](Cc1ccccc1)NC(=O)[C@H](NC(=O)[C@@H](Cc1ccc(O)cc1)NC(=O)CNC(=O)CNC(=O)CCOCCOCCOCCNC(=O)CN1CCN(CC(=O)O)CCN(CC(=O)O)CC1)[C@H](C)O)C(=O)N[C@H](CC(N)=O)C(=O)N1CCC[C@@H]1C(=O)O [gallium-68 labelled]		gamma counting	C57BL/6 mice, male, stomach	intravenous, 1.85 MBq, 120 min		tissue uptake	0.91 ± 0.25 %ID/g
CC[C@H](C)[C@H](NC(=O)[C@H](CCCCN)NC(=O)CNC(=O)[C@H](CC(C)C)NC(=O)[C@H](Cc1ccccc1)NC(=O)[C@H](CCCCN)NC(=O)[C@H](CO)NC(=O)[C@H](Cc1ccccc1)NC(=O)[C@H](Cc1c[nH]c2ccccc12)NC(=O)[C@H](CCC(N)=O)NC(=O)[C@@H](NC(=O)[C@H](Cc1ccccc1)NC(=O)CCCCCNC(=O)CN1CCN(CC(=O)O)CCN(CC(=O)O)CCN(CC(=O)O)CC1)C(C)C)C(=O)N[C@@H](CCC(=O)O)C(=O)N1CCC[C@H]1C(=O)N[C@@H](CC(=O)O)C(=O)N[C@H](C(=O)N[C@@H](CO)C(=O)N[C@@H](CCC(N)=O)C(=O)N[C@H](C(=O)N[C@@H](CCC(N)=O)C(=O)N[C@@H](CC(=O)O)C(=O)N1CCC[C@H]1C(=O)N[C@@H](CC(N)=O)C(=O)N[C@@H](CC(=O)O)C(=O)N[C@@H](CCC(N)=O)C(=O)N[C@@H](Cc1ccc(O)cc1)C(=O)N[C@@H](CCC(=O)O)C(=O)N1CCC[C@H]1C(=O)N[C@@H](Cc1ccccc1)C(=O)O)C(C)C)C(C)C [copper-64 labelled]			C57BL/6 mice, small intestine	added: LPS 3 mg/kg intratracheal		tissue uptake	6.52 ± 0.3 %ID/g
O=C1NC2(CC2)COc2ncc(F)cc2[C@H]2COCCN2c2ccn3ncc1c3n2			Sprague-Dawley rat, female, adrenals	oral, 2.5 mg/kg/day, 4 weeks, end of treatment		organ-to-brain weight ratio	3.83 ± 0.46%
CC[C@H](C)[C@H](NC(=O)[C@H](CCCNC(=N)N)NC(=O)[C@H](CCCCN)NC(=O)[C@H](Cc1ccc(O)cc1)NC(=O)[C@H](CC(=O)O)NC(=O)[C@H](C)NC(=O)CNC(=O)CCOCCOCCOCCNC(=O)CN1CCN(CC(=O)O)CCN(CC(=O)O)CCN(CC(=O)O)CC1)C(=O)N[C@H](C(=O)N[C@@H](CC(C)C)C(=O)N[C@@H](CCCCN)C(=O)N[C@H](C(=O)N[C@@H](CC(N)=O)C(N)=O)C(C)C)[C@@H](C)O [copper-64 labelled]		ex vivo gamma counting	C57BL/6J male mice, B16-F10 tumour, spleen	intravenous, 1.85 MBq, 100 min		tissue uptake	1.27 ± 0.428 %ID/g
O=C1NC(=O)c2c1c1cc(F)c[n+]3c1c1c2c2cc(O)ccc2[n]1[Ru-4]312([N]=C=S)[S+]3CC[S+]1CC[S+]2CC3 (stereo not drawn)	KIT (Homo sapiens, UniProt P10721, D816H)	enzyme activity		100 nM, human enzyme, added: 10 µM ATP	relative to: untreated	remaining activity	5%
CC(C)(C)C(=O)OCOP(=O)(OCOC(=O)C(C)(C)C)C1CCCN(O)C1=O (stereo not drawn)	NCI-H460					CC50	> 100 µM
CCCC[C@H]1C(=O)N(C)[C@@H](CCCC)C(=O)N[C@@H](CCCNC(=O)CN2CCN(CC(=O)O)CCN(CC(=O)O)CCN(CC(=O)O)CC2)C(=O)N[C@H](C(=O)NCC(N)=O)CSCC(=O)N[C@@H](Cc2ccc(O)cc2)C(=O)N(C)[C@@H](C)C(=O)N[C@@H](CC(N)=O)C(=O)N2CCC[C@H]2C(=O)N[C@@H](Cc2c[nH]cn2)C(=O)N[C@@H](CC(C)C)C(=O)N(C)CC(=O)N[C@@H](Cc2c[nH]c3ccccc23)C(=O)N[C@@H](CO)C(=O)N[C@@H](Cc2c[nH]c3ccccc23)C(=O)N1C [gallium-68 labelled]			NOD/SCID mice with CHO-hPD-L1 xenograft, pancreas	10 min post injection		tissue uptake	2.04 ± 0.15 %ID/g
CSCC[C@H](NC(=O)CNC(=O)[C@H](CCCCN)NC(=O)[C@H](CC(C)C)NC(=O)[C@@H]1CCCN1C(=O)[C@H](CO)NC(=O)[C@H](Cc1c[nH]cn1)NC(=O)[C@H](Cc1c[nH]c2ccccc12)NC(=O)[C@H](CCCNC(=N)N)NC(=O)[C@H](CC(C)C)NC(=O)[C@H](CCCNC(=N)N)NC(=O)[C@H](Cc1c[nH]c2ccccc12)NC(=O)[C@H](CS)NC(=O)CCCCCNC(=O)CN1CCN(CC(=O)O)CCN(CC(=O)O)CCN(CC(=O)O)CC1)C(=O)O [copper-64 labelled]		PET imaging	BALB/c nude mice, tumor	intravenous, dose not given, 55 h, Huh-7 tumour-bearing		tissue uptake	4.05 ± 0.37 %ID/g

A few entries again:
Compound	tested on	test	test system	conditions	how to read	measurement	result
CCCC[C@H]1C(=O)N(C)[C@@H](CCCC)C(=O)N[C@@H](CCCNC(=O)CN2CCN(CC(=O)O)CCN(CC(=O)O)CCN(CC(=O)O)CC2)C(=O)N[C@H](C(=O)NCC(N)=O)CSCC(=O)N[C@@H](Cc2ccc(O)cc2)C(=O)N(C)[C@@H](C)C(=O)N[C@@H](CC(N)=O)C(=O)N2CCC[C@H]2C(=O)N[C@@H](Cc2c[nH]cn2)C(=O)N[C@@H](CC(C)C)C(=O)N(C)CC(=O)N[C@@H](Cc2c[nH]c3ccccc23)C(=O)N[C@@H](CO)C(=O)N[C@@H](Cc2c[nH]c3ccccc23)C(=O)N1C [gallium-68 labelled]			NOD/SCID mice with CHO-hPD-L1 xenograft, pancreas	10 min post injection		tissue uptake	2.04 ± 0.15 %ID/g
CSCC[C@H](NC(=O)CNC(=O)[C@H](CCCCN)NC(=O)[C@H](CC(C)C)NC(=O)[C@@H]1CCCN1C(=O)[C@H](CO)NC(=O)[C@H](Cc1c[nH]cn1)NC(=O)[C@H](Cc1c[nH]c2ccccc12)NC(=O)[C@H](CCCNC(=N)N)NC(=O)[C@H](CC(C)C)NC(=O)[C@H](CCCNC(=N)N)NC(=O)[C@H](Cc1c[nH]c2ccccc12)NC(=O)[C@H](CS)NC(=O)CCCCCNC(=O)CN1CCN(CC(=O)O)CCN(CC(=O)O)CCN(CC(=O)O)CC1)C(=O)O [copper-64 labelled]		PET imaging	BALB/c nude mice, tumor	intravenous, dose not given, 55 h, Huh-7 tumour-bearing		tissue uptake	4.05 ± 0.37 %ID/g
